Results of several laboratories.
Protocols differ between the studies behind these lines. Several values in a cell are separate wells, animals, samples, runs or records. ± marks the error that the study gave.

SMILES	assay	test system	setting	tissue uptake
N#C[C@@H]1CCCN1C(=O)CNC(=O)c1ccnc2ccc(OCCCN3CCN(C(=O)CCc4ccc5c(c4)CN4CCN6CC(=O)[O][68Ga-]([O]C(=O)C4)([O]5)[O]c4ccc(CCC(=O)N5CCN(CCCOc7ccc8nccc(C(=O)NCC(=O)N9CCC[C@H]9C#N)c8c7)CC5)cc4C6)CC3)cc12	–	BALB/c nude mice, U-87 MG xenograft, brain	1 h, blocking, with: DOTA-FAPI-04 40 nmol/mouse co-injected	0.05 ± 0.01 %ID/g
COc1ccc(Nc2nc(Nc3ccc(OCCOCCOCC[18F])cc3)ncc2Br)cc1	–	ICR mice, S180 tumour-bearing, brain	intravenous, 370 kBq, 15 min	2.43 ± 0.07 %ID/g
CCCC[C@H](NC(=O)CNC(=O)CNC(=O)[C@H](CCCCNC(=O)C(C)c1ccc(CC(C)C)cc1)NC(=O)CN1CCN(CC(=O)O)CCN(CC(=O)O)CCN(CC(=O)O)CC1)C(=O)N[C@H]1CC(=O)NCCCC[C@@H](C(N)=O)NC(=O)[C@H](Cc2c[nH]c3ccccc23)NC(=O)[C@H](CCCNC(=N)N)NC(=O)[C@@H](Cc2ccccc2)NC(=O)[C@H](Cc2c[nH]cn2)NC1=O (some centres unmarked) [lutetium-177 labelled]	–	C57 mice, tumour-bearing, muscle	2 h	0.28 ± 0.12 %ID/g
O=C(NCC1OC2CCC=CCCC2O1)c1ccc(COCCOCCOCC[18F])cc1 (centres unmarked)	–	healthy female BALB/c nude mice, kidneys	intravenous, 7.4 MBq per mouse, 120 min	3.1 ± 0.1 %ID/g
CCCC[C@H](NC(=O)CNC(=O)CNC(=O)[C@H](CCCCNC(=O)[C@H](CC(=O)O)NC(=O)C(C)c1ccc(CC(C)C)cc1)NC(=O)CN1CCN(CC(=O)O)CCN(CC(=O)O)CCN(CC(=O)O)CC1)C(=O)N[C@H]1CC(=O)NCCCC[C@@H](C(N)=O)NC(=O)[C@H](Cc2c[nH]c3ccccc23)NC(=O)[C@H](CCCNC(=N)N)NC(=O)[C@@H](Cc2ccccc2)NC(=O)[C@H](Cc2c[nH]cn2)NC1=O (some centres unmarked) [lutetium-177 labelled]	–	C57 mice, tumour-bearing, brain	2 h	0.05 ± 0.03 %ID/g
COc1ccc(Nc2nc(Nc3ccc(OCCOCC[18F])cc3)ncc2Br)cc1	–	ICR mice, S180 tumour-bearing, liver	intravenous, 370 kBq, 60 min	2.36 ± 0.46 %ID/g
Cc1cc(C)n(CCN(CCN)CCCCCCNC(=O)[C@@H](N)Cc2c[nH]c3ccccc23)n1.[99Tc+].[C-]#[O+].[C-]#[O+].[C-]#[O+]	–	BALB/c nude mice A549 xenograft, lung	intravenous, 15 min	5.08 ± 0.67 %ID/g
CC(C)C[C@H](NC(=O)[C@@H](CCCCNC(=O)[C@@H](Cc1ccccc1)NC(=O)CCCCCCCNC(=O)CN1CCN(CC(=O)O)CCN(CC(=O)O)CCN(CC(=O)O)CC1)NC(=O)[C@H](Cc1ccc(O)cc1)NC(=O)[C@H](CO)NC(=O)[C@H](Cc1c[nH]c2ccccc12)NC(=O)[C@H](Cc1c[nH]cn1)NC(=O)[C@@H]1CCC(=O)N1)C(=O)N[C@@H](CCCNC(=N)N)C(=O)N1CCC[C@H]1C(=O)NCC(N)=O [indium-111 labelled]	biodistribution	male athymic nude mice, DU-145 prostate cancer xenograft, brain	intravenous, 0.037 MBq, 2 h post-injection	0.04 ± 0.01 %ID/g
CCCC[C@H](NC(=O)COCCOCCNC(=O)CN1CCN(CC(=O)O)CCN(CC(=O)O)CC1)C(=O)N[C@H]1CC(=O)NCCCC[C@@H](C(N)=O)NC(=O)[C@H](Cc2c[nH]c3ccccc23)NC(=O)[C@H](CCCNC(=N)N)NC(=O)[C@@H](Cc2ccccc2)NC(=O)[C@H](Cc2c[nH]cn2)NC1=O [fluorine-18 labelled]	–	C57 mice B16-F10 melanoma, brain	intravenous, 0.37 MBq, 2 h	0.01 ± 0.03 %ID/g
COc1ccc2c(c1)C(C)(C)C(/C=C/C1=C(Oc3ccc(C(=O)NCCCCOc4cc(CN(Cc5ccccn5)Cc5ccccn5)cc(CN(Cc5ccccn5)Cc5ccccn5)c4)cc3)C(=C/C=C3/N(CCCCS(=O)(=O)[O-])c4ccc(OC)cc4C3(C)C)CCC1)=[N+]2CCCCS(=O)(=O)[O-].O=[N+]([O-])[O-].O=[N+]([O-])[O-].[99Tc+].[C-]#[O+].[C-]#[O+].[C-]#[O+].[Zn+2]	–	BALB/c mice, healthy, stomach with contents	12 h post-injection	2.86 %ID/g and 3.19 %ID/g and 0.32 %ID/g and 0.27 %ID/g
Cc1cc(C)n(CCN(CCN)CCCCCCNC(=O)[C@@H](N)Cc2c[nH]cn2)n1.[99Tc+].[C-]#[O+].[C-]#[O+].[C-]#[O+]	–	BALB/c nude mice, A549 xenograft, lung	intravenous, 15 min	1.44 ± 0.03 %IA/g
O=C(NCC1OC2CCC=CCCC2O1)c1ccc([18F])nc1 (centres unmarked)	–	healthy female BALB/c nude mice, stomach	intravenous, 7.4 MBq per mouse, 2 min	3.9 ± 0.4 %ID/g
CCCC[C@H](NC(=O)CCCCCCCNC(=O)CN1CCN(CC(=O)O)CCN(CC(=O)O)CC1)C(=O)N[C@H]1CC(=O)NCCCC[C@@H](C(N)=O)NC(=O)[C@H](Cc2c[nH]c3ccccc23)NC(=O)[C@H](CCCNC(=N)N)NC(=O)[C@@H](Cc2ccccc2)NC(=O)[C@H](Cc2c[nH]cn2)NC1=O [fluorine-18 labelled]	–	C57 mice B16-F10 melanoma, skin	intravenous, 0.37 MBq, 1 h	0.99 ± 0.91 %ID/g
O=C([O-])CN1CCN(CC(=O)[O-])CCN(CC(=O)NC[C@H]2CC[C@H](C(=O)N[C@H](Cc3cnc4ccccc4c3)C(=O)NCCCC[C@H](NC(=O)N[C@@H](CCC(=O)O)C(=O)O)C(=O)O)CC2)CCN(CC(=O)[O-])CC1.[64Cu+2]	ex vivo gamma counting	22Rv1 tumour-bearing mice, intestine	intravenous, 0.74 MBq, 24 h post-injection	11 %ID/g

Some of these lines once more:
SMILES	assay	test system	setting	tissue uptake
O=C(NCC1OC2CCC=CCCC2O1)c1ccc(COCCOCCOCC[18F])cc1 (centres unmarked)	–	healthy female BALB/c nude mice, kidneys	intravenous, 7.4 MBq per mouse, 120 min	3.1 ± 0.1 %ID/g
CCCC[C@H](NC(=O)COCCOCCNC(=O)CN1CCN(CC(=O)O)CCN(CC(=O)O)CC1)C(=O)N[C@H]1CC(=O)NCCCC[C@@H](C(N)=O)NC(=O)[C@H](Cc2c[nH]c3ccccc23)NC(=O)[C@H](CCCNC(=N)N)NC(=O)[C@@H](Cc2ccccc2)NC(=O)[C@H](Cc2c[nH]cn2)NC1=O [fluorine-18 labelled]	–	C57 mice B16-F10 melanoma, brain	intravenous, 0.37 MBq, 2 h	0.01 ± 0.03 %ID/g
